# Measured values from different studies.
# Numbered parts are unrelated; each lists some results of a single study.
# Chain of UniProt O14920 (whole entry, looked up): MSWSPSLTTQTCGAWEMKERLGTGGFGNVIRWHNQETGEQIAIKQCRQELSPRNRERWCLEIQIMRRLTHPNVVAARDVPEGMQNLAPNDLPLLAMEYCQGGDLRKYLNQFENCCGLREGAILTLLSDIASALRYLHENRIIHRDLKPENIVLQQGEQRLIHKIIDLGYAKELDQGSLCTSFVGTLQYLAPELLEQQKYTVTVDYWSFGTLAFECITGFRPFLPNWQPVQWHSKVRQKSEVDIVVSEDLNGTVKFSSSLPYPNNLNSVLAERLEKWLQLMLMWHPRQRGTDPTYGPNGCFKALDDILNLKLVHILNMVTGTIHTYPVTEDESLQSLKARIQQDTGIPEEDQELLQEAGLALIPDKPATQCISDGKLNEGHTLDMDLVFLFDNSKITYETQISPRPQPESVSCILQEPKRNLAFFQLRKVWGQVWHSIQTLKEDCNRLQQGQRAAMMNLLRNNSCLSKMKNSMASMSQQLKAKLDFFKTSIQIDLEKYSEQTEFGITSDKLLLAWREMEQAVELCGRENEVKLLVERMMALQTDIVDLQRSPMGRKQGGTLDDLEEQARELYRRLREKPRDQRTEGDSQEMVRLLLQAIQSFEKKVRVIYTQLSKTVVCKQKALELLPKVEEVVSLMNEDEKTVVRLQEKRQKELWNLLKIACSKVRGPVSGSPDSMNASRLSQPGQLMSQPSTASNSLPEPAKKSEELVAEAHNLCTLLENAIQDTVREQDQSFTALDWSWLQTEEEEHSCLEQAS
# Chain of UniProt P15735 (whole entry, looked up): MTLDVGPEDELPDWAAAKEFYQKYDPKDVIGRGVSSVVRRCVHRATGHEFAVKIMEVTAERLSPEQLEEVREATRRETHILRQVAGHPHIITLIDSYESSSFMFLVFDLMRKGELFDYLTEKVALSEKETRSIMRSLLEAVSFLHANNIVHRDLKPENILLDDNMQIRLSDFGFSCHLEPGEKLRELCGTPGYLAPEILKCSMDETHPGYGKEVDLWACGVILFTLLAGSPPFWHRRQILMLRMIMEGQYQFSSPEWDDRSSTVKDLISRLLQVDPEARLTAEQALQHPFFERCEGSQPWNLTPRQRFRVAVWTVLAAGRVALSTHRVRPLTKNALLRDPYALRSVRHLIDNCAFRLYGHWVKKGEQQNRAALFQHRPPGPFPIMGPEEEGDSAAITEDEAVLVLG
# Chain of UniProt P53778 (whole entry, looked up): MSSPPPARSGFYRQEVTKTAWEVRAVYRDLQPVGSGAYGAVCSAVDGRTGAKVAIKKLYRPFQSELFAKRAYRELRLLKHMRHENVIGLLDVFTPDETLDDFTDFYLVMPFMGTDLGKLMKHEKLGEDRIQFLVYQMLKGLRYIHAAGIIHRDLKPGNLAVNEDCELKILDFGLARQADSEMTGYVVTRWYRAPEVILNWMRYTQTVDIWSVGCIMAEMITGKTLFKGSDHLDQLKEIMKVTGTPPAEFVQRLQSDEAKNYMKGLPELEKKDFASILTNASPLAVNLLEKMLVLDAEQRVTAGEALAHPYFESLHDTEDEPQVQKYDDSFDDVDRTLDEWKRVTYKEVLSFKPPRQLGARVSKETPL
# Chain of UniProt P14616 (whole entry, looked up): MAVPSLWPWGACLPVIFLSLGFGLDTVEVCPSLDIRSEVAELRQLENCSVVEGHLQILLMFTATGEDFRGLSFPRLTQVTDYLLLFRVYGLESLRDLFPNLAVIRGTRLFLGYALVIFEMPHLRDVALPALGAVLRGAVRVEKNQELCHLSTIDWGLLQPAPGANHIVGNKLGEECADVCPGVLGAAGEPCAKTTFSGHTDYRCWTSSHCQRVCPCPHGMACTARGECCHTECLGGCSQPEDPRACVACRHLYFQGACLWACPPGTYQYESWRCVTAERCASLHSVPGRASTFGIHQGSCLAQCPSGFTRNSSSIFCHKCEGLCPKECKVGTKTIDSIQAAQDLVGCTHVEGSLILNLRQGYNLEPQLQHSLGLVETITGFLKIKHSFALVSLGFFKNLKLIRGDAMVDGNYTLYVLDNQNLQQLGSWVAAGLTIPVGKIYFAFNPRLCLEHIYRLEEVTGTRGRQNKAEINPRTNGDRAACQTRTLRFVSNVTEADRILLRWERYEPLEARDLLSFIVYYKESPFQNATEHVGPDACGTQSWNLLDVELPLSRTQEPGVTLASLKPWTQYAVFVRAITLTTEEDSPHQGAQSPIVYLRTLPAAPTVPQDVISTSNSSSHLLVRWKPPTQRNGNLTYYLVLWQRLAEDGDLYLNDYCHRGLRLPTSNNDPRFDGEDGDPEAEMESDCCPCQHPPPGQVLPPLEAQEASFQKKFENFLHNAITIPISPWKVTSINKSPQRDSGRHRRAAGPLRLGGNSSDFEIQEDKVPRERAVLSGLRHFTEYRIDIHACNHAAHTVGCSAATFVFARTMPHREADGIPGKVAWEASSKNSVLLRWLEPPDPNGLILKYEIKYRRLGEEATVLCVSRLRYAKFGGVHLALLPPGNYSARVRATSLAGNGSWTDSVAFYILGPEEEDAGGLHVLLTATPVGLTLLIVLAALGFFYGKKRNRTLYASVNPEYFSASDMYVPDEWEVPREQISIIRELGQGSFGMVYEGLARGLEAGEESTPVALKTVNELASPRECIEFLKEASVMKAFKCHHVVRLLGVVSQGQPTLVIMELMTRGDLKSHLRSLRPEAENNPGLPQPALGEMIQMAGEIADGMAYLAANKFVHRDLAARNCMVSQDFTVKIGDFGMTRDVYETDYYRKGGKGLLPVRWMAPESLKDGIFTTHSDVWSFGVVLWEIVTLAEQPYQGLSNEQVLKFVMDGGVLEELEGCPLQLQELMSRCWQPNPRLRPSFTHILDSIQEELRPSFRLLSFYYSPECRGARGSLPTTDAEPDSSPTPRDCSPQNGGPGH
# Chain of UniProt P48730 (whole entry, looked up): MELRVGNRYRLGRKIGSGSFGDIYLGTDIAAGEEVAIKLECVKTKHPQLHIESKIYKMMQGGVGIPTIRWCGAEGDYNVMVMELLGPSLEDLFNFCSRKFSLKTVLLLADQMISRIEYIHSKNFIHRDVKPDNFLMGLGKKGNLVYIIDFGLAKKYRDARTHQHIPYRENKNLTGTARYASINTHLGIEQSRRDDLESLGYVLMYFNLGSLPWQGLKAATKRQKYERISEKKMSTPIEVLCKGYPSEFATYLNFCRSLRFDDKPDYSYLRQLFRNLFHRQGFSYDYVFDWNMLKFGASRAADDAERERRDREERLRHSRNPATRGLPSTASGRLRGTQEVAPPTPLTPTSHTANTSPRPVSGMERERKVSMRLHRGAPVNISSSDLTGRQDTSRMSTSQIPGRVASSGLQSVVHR
# Chain of UniProt Q96Q40 (whole entry, looked up): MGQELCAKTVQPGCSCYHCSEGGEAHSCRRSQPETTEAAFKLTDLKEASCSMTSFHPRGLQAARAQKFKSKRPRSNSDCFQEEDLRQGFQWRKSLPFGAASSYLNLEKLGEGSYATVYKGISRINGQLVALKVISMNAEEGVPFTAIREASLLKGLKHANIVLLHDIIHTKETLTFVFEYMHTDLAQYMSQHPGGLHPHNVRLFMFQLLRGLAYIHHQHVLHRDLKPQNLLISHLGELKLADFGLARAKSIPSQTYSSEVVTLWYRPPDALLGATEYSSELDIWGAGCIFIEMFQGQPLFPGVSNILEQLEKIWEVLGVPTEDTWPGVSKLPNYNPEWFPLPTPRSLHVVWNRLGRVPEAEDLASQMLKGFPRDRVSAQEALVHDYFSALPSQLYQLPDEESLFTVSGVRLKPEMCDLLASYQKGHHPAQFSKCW

# Series 1
# SMILES: CNC(=O)c1ccc(Nc2ncc(C(F)(F)F)c(NCc3nccnc3N(C)S(C)(=O)=O)n2)cc1
target,read-out,technique,tested at,remaining binding
"Uncharacterized serine/threonine-protein kinase SBK3 (SBK3, Homo sapiens, UniProt P0C264)",cell-free assay,competition with immobilised ligand,0.1 µM,100%
"Tyrosine-protein kinase ABL1, phosphorylated (ABL1, Homo sapiens, UniProt P00519, H396P)",cell-free assay,competition with immobilised ligand,0.1 µM,100%
"Mitogen-activated protein kinase kinase kinase 3 (MAP3K3, Homo sapiens, UniProt Q99759)",cell-free assay,competition with immobilised ligand,0.1 µM,81%
"Mitogen-activated protein kinase 12 (MAPK12, Homo sapiens, UniProt P53778)",cell-free assay,competition with immobilised ligand,0.1 µM,67%
"Serine/threonine-protein kinase ULK2 (ULK2, Homo sapiens, UniProt Q8IYT8)",cell-free assay,competition with immobilised ligand,0.1 µM,75%
"Tyrosine-protein kinase ABL1, phosphorylated (ABL1, Homo sapiens, UniProt P00519, T315I)",cell-free assay,competition with immobilised ligand,0.1 µM,45%
"Serine/threonine-protein kinase 38 (STK38, Homo sapiens, UniProt Q15208)",cell-free assay,competition with immobilised ligand,0.1 µM,86%
"Insulin receptor-related protein (INSRR, Homo sapiens, UniProt P14616)",cell-free assay,competition with immobilised ligand,0.1 µM,95%
"Serine/threonine-protein kinase ICK (CILK1, Homo sapiens, UniProt Q9UPZ9)",cell-free assay,competition with immobilised ligand,0.1 µM,68%
"Phosphorylase b kinase gamma catalytic chain, liver/testis isoform (PHKG2, Homo sapiens, UniProt P15735)",cell-free assay,competition with immobilised ligand,0.1 µM,75%
"Tyrosine-protein kinase ABL1, phosphorylated (ABL1, Homo sapiens, UniProt P00519, F317I)",binding,,0.1 µM,100%
"Tyrosine-protein kinase Blk (BLK, Homo sapiens, UniProt P51451)",cell-free assay,competition with immobilised ligand,0.1 µM,78%
"Serine/threonine-protein kinase SIK1 (SIK1, Homo sapiens, UniProt P57059)",,competition binding,0.1 µM,90%
"Receptor tyrosine-protein kinase erbB-2 (ERBB2, Homo sapiens, UniProt P04626)",cell-free assay,competition with immobilised ligand,0.1 µM,100%
"Cyclin-dependent kinase 15 (CDK15, Homo sapiens, UniProt Q96Q40)",cell-free assay,competition with immobilised ligand,0.1 µM,67%
"Receptor-type tyrosine-protein kinase FLT3 (FLT3, Homo sapiens, UniProt P36888, K663Q)",cell-free assay,competition with immobilised ligand,0.1 µM,21%
"Casein kinase I isoform delta (CSNK1D, Homo sapiens, UniProt P48730)",cell-free assay,competition with immobilised ligand,0.1 µM,98%
"5'-AMP-activated protein kinase catalytic subunit alpha-2 (PRKAA2, Homo sapiens, UniProt P54646)",cell-free assay,competition with immobilised ligand,0.1 µM,100%
"Inhibitor of nuclear factor kappa-B kinase subunit beta (IKBKB, Homo sapiens, UniProt O14920)",cell-free assay,competition with immobilised ligand,0.1 µM,100%
"Receptor tyrosine-protein kinase erbB-3 (ERBB3, Homo sapiens, UniProt P21860)",cell-free assay,competition with immobilised ligand,0.1 µM,93%
"Tyrosine-protein kinase ABL1, non-phosphorylated (ABL1, Homo sapiens, UniProt P00519, F317L)",cell-free assay,competition with immobilised ligand,0.1 µM,100%
"Receptor-type tyrosine-protein kinase FLT3 (FLT3, Homo sapiens, UniProt P36888, D835V)",binding,competition with immobilised ligand,1 µM,0.2%
"Casein kinase I isoform epsilon (CSNK1E, Homo sapiens, UniProt P49674)",cell-free assay,competition with immobilised ligand,0.1 µM,100%
"Cytoplasmic tyrosine-protein kinase BMX (BMX, Homo sapiens, UniProt P51813)",cell-free assay,competition with immobilised ligand,0.1 µM,71%
"Myosin light chain kinase, smooth muscle (MYLK, Homo sapiens, UniProt Q15746)",cell-free assay,competition with immobilised ligand,0.1 µM,75%

# Series 2 — read-out: enzyme activity; action: inhibitor; tested at: 10 µM
# Target: Calcium/calmodulin-dependent protein kinase type II subunit alpha (CAMK2A, Homo sapiens, UniProt Q9UQM7)
# Chain of UniProt Q9UQM7 (whole entry, looked up): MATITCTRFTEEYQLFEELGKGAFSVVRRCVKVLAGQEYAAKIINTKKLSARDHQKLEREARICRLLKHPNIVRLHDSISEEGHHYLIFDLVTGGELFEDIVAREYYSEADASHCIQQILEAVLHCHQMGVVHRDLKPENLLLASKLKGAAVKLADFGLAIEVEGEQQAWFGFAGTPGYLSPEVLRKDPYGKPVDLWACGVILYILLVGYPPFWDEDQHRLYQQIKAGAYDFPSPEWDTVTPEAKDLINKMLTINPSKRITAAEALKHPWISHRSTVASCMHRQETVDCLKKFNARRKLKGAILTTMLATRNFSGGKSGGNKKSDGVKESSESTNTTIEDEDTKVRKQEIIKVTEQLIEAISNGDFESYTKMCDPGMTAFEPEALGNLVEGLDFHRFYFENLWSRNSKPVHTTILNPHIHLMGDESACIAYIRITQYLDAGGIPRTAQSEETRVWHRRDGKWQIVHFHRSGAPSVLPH
SMILES,inhibition [%]
CCCCCCCCCCCCCCCCCCCC(=O)O,16
C=C[C@H](O)CC(=NOS(=O)(=O)O)S[C@@H]1O[C@H](CO)[C@@H](O)[C@H](O)[C@H]1O,-14
C[C@H](CC[C@@H](O[C@@H]1O[C@H](CO[C@@H]2O[C@H](CO)[C@@H](O)[C@H](O)[C@H]2O)[C@@H](O)[C@H](O)[C@H]1O[C@@H]1O[C@H](CO)[C@@H](O)[C@H](O)[C@H]1O)C(C)(C)O)[C@H]1CC[C@@]2(C)[C@@H]3CC=C4[C@@H](CC[C@H](O[C@@H]5O[C@H](CO[C@@H]6O[C@H](CO)[C@@H](O)[C@H](O)[C@H]6O)[C@@H](O)[C@H](O)[C@H]5O)C4(C)C)[C@]3(C)[C@H](O)C[C@]12C,-13
Cc1cc(O)c2c(c1)C(=O)c1cccc(O[C@@H]3O[C@H](CO)[C@@H](O)[C@H](O)[C@H]3O)c1C2=O,-8
O=c1c(O)c(-c2ccc(O)c(O)c2)oc2cc(O)c(O)c(O)c12,-93
CC(C)(O)[C@@H]1CC[C@](C)([C@H]2[C@@H](O)C[C@@]3(C)[C@@H]4C[C@H](O)[C@H]5C(C)(C)[C@@H](O)CC[C@]5(C)C4=CC[C@]23C)O1,-1
CN1CCN2c3c(cccc31)[C@@H]1CN(CCCC(=O)c3ccc(F)cc3)CC[C@@H]12,-3
O=c1c(O[C@@H]2O[C@H](CO)[C@@H](O)[C@H](O)[C@H]2O)c(-c2ccc(O)cc2)oc2cc(O)cc(O)c12,-10
O=C1CN2Cc3c(ccc(Cl)c3Cl)N=C2N1,-1
CCCCCCCCCCCCCCCCOP(=O)([O-])OCC[N+](C)(C)C,-3
Cn1nnc2c(C(N)=O)ncn2c1=O,5
COC(=O)C[C@H]1[C@]2(C)C3=C(C)[C@H](c4ccoc4)C[C@H]3O[C@@H]2[C@@H]2OC(=O)[C@]3(C)C=CC(=O)[C@@]1(C)[C@@H]23,-21
CC1(C)CC[C@]2(C(=O)O)CCC3=C([C@@H](CCl)C[C@@H]4[C@@]5(C)C[C@H](O)[C@H](O)[C@@](C)(C(=O)O)[C@@H]5CC[C@@]34C)[C@@H]2C1,9

# Series 3 — host: mouse; matrix: microsomes or S9; tested at: 2 µM; time: 0.5 h
Compound,remaining compound
CN(C)S(=O)(=O)c1cc2c(cc1N1CCN(c3ccccn3)CC1)Oc1ccccc1NC2=O,7.07%
OCCN(Cc1ccccc1)CC(O)COc1c(F)cc(Br)cc1F (centres unmarked),80.7%
CC(C)(C)Nc1nc(Cl)nc(NC(C)(C)CO)n1,26.4%
COc1ccc2c(c1)cc(C(=O)Nc1c(C)cccc1C)n2C,3.57%
Cn1nc2c(c1C(=O)N1CCC(C3CCCCN3S(C)(=O)=O)CC1)CCCC2 (centres unmarked),4.77%
COc1cc(OC)c(OC)cc1CNC(C)(C)CC(C)(C)C,25.7%
Cc1occc1C(=O)N1CCC2(CCc3nnc(C(C)C)n3CC2)CC1,81.5%
COc1cc(/C=C/C(=O)N2CCC=CC2=O)cc(OC)c1OC,0.0459%
Oc1cc(Nc2cccc(Br)c2)nc(O)n1,93.9%
CCCc1nc(-c2ccc3ccccc3c2)cc2c1sc1ccccc12,72.2%
Cc1cc(-c2ccc(S(=O)(=O)N3CCOc4ccccc43)s2)n[nH]1,0.777%
Cc1ccccc1-c1nc2ccccc2cc1C(C)n1c(=O)n(-c2ccc(O)c(F)c2)c2cnc(N)nc21 (centres unmarked),5.82%
COc1cc2c(Nc3cc(Cl)cc(Cl)c3)ncnc2cc1O,4.64%
CCN(CC)CCNc1nc(C)cc(COC)c1C(N)=O,36.1%
Cc1c2c(=O)[nH]cnc2c(C(=O)c2ccccc2)n1-c1ccccc1,80.9%
Nc1ccc(CCNC[C@H](O)c2ccccc2)cc1,94%
Cc1ccc(CN(CCCn2ccnc2)Cc2ccc3ncccc3c2)s1,74.7%

# Series 4 — read-out: enzyme activity; action: inhibitor; tested at: 0.5 µM; relative to: control
# Target: Tyrosine-protein kinase ZAP-70 (ZAP70, Homo sapiens, UniProt P43403)
# Chain of UniProt P43403 (whole entry, looked up): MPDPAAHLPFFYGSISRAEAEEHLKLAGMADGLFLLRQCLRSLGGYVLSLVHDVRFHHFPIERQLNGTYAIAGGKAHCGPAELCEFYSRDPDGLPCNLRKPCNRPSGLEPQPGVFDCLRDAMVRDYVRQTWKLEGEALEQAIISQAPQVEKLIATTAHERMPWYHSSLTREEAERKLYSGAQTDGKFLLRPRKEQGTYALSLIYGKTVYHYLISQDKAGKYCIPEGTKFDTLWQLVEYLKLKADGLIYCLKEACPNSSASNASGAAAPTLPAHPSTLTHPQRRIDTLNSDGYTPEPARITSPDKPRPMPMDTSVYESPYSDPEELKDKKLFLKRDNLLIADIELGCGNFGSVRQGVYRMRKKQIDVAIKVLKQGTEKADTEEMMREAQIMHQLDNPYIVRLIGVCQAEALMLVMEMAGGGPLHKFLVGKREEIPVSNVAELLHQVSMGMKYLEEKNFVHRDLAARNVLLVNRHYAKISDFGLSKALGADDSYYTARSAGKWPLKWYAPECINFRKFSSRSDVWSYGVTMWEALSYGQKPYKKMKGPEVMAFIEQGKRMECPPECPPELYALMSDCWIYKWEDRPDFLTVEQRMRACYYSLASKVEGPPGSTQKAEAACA
Structure (SMILES),remaining activity
CCOc1nc(NC(=O)Cc2cc(OC)ccc2OC)cc(N)c1C#N,90.6%
Nc1cccc(-c2cc3c(Oc4cccc(O)c4)ncnc3[nH]2)c1,97.5%
Cc1cc2ncc(-c3ccccc3)nc2cc1C,96.7%
COc1cc2ncnc(Nc3ccc(O)c(Br)c3)c2cc1OC,99.7%
CN([C@@H](Cc1ccc(OS(=O)(=O)c2cccc3cnccc23)cc1)C(=O)N1CCN(c2ccccc2)CC1)S(=O)(=O)c1cccc2cnccc12,99.5%
Cn1nc2c3c(cccc31)C(=O)c1ccccc1-2,95.1%
N#Cc1c(NC(=O)c2cccc3ccccc23)sc2c1CCCC2,95%
O=C1C(Cl)=C(N2C(=O)CCC2=O)C(=O)c2ccccc21,93.8%
c1ccc(-c2cnc(Nc3ccc(OCCN4CCCC4)cc3)s2)cc1,105%
O=C1c2ccccc2-c2n[nH]c3cccc1c23,88.8%
CCN(CC)CCNC(=O)c1c(C)[nH]c(/C=C2\C(=O)Nc3ccc(F)cc32)c1C,97.2%
COc1cc2ncnc(Nc3cccc(Cl)c3)c2cc1OC,102%
Ic1cccc(CSc2nnc(-c3ccncc3)o2)c1,107%
c1ccc(-c2[nH]ncc2-c2ccnc3ccccc23)nc1,100%
CCN(CC)CCNC(=O)c1c(C)[nH]c(/C=C2\C(=O)Nc3ccc(Cl)cc32)c1C,91.2%
N#C/C(=C\c1ccc(O)c(O)c1)C(=O)NCc1ccccc1,101%
C[C@@H]1CCN(C(=O)CC#N)C[C@@H]1N(C)c1ncnc2[nH]ccc12,105%
Cc1cn(-c2cc(NC(=O)c3ccc(C)c(Nc4nccc(-c5cccnc5)n4)c3)cc(C(F)(F)F)c2)cn1,95.1%
O=c1cc(-c2cccc3c2Sc2ccccc2S3)oc(N2CCOCC2)c1,97.1%
CCN(CC)C(=O)c1ccc(Nc2nc(OCC3CCCCC3)c3[nH]cnc3n2)cc1,94%
COc1cc2c(cc1OC)-c1[nH]nc(Nc3cccc(F)c3)c1C2,95.3%
O=C(NC(NC(=S)Nc1ccc(F)c([N+](=O)[O-])c1)C(Cl)(Cl)Cl)C(c1ccccc1)c1ccccc1 (centres unmarked),94.2%
Cc1nc2cc3nc(-c4cccs4)cnc3cc2n1C,93.3%
CN(C)C[C@H]1CCn2c(c(C3=C(c4cn(C)c5ccccc45)C(=O)NC3=O)c3ccccc32)C1,105%
O=C(Nc1cccc(Nc2nccc(Nc3cccc(C(F)(F)F)c3)n2)c1)C1CC1,126%

# Some of these lines once more (series 3):
Compound,remaining compound
Cn1nc2c(c1C(=O)N1CCC(C3CCCCN3S(C)(=O)=O)CC1)CCCC2 (centres unmarked),4.77%
COc1cc(OC)c(OC)cc1CNC(C)(C)CC(C)(C)C,25.7%
Cc1occc1C(=O)N1CCC2(CCc3nnc(C(C)C)n3CC2)CC1,81.5%
COc1cc(/C=C/C(=O)N2CCC=CC2=O)cc(OC)c1OC,0.0459%
Oc1cc(Nc2cccc(Br)c2)nc(O)n1,93.9%
CCCc1nc(-c2ccc3ccccc3c2)cc2c1sc1ccccc12,72.2%
Cc1cc(-c2ccc(S(=O)(=O)N3CCOc4ccccc43)s2)n[nH]1,0.777%
Cc1ccccc1-c1nc2ccccc2cc1C(C)n1c(=O)n(-c2ccc(O)c(F)c2)c2cnc(N)nc21 (centres unmarked),5.82%
COc1cc2c(Nc3cc(Cl)cc(Cl)c3)ncnc2cc1O,4.64%
CCN(CC)CCNc1nc(C)cc(COC)c1C(N)=O,36.1%
Cc1c2c(=O)[nH]cnc2c(C(=O)c2ccccc2)n1-c1ccccc1,80.9%
